Measured values gathered from unrelated publications.
Lines come from different studies, so protocols differ.

Cc1cc(-c2nnc(N)nc2-c2ccc(F)cc2)cc(Cl)n1 — patients with immune-mediated AE (item: Hyperthyroidism; IO-naive colorectal cancer patients; oral, dose not given, treatment-related, all grades): 0%
CNC(=O)c1ccc(-c2cnc3ncc(Cc4ccc5ncccc5c4)n3n2)cc1F — patients with adverse event (item: Headache; hepatocellular carcinoma patients; oral, 600 mg twice daily, expansion cohort, grade 3-4): 0%
CNC(=O)c1cc(Oc2ccc(NC(=O)Nc3cc(C(C)(C)C)nn3-c3ccc4ncccc4c3)c(F)c2)ccn1 — patients with grade 1 cardiac disorders (patients; oral, dose not given, cycles 1 and 2, Medium AUC subgroup): 7%
CCOc1c([C@H](C)n2nc(C)c3c(N)ncnc32)cc(Cl)c(F)c1[C@@H]1CNC(=O)C1 — patients (item: QTcF ≤450 ms; previously treated B-cell malignancy; oral, 20 mg once daily, baseline QTcF ≤450 ms): 100%
FC(F)(F)c1ccc(CNc2ccc(Cc3c[nH]c4ncc(Cl)cc34)cn2)cn1 — patients with treatment-related adverse event (item: skin hypopigmentation; patients with TGCT; oral, 1000 mg/day, grade 3 or higher): 0%
Cc1cc(NC2CCN(C(=O)OC3CCN(C(=O)/C=C/CN(C)C)C3)CC2)n2ncc(C(C)C)c2n1 (centres unmarked) — patients with adverse event (Phase I dose escalation CTCAE v4.0, item: Vomiting; patients with advanced solid tumours; dose not given, all dose schedules any grade): 22%
O=C(Nc1nc2cccc(-c3ccc(CN4CCS(=O)(=O)CC4)cc3)n2n1)C1CC1 — patients with any TEAE (rheumatoid arthritis patients; oral, 100 mg twice daily, 4 weeks, regardless of relatedness): 33.3%
COc1cc(Nc2ncc3c(n2)-c2ccc(Cl)cc2C(c2c(F)cccc2OC)=NC3)ccc1C(=O)O — patients with muscle weakness (cancer patients; oral, dose not given, all grades any attribution, together with: pembrolizumab): 21%

Excerpt of the above:
O=C(Nc1nc2cccc(-c3ccc(CN4CCS(=O)(=O)CC4)cc3)n2n1)C1CC1 — patients with any TEAE (rheumatoid arthritis patients; oral, 100 mg twice daily, 4 weeks, regardless of relatedness): 33.3%
